Assay results gathered from unrelated publications.
A part holds a random share of what one study measured.

Block 1
Target: Hepatocyte nuclear factor 3-alpha (Foxa1, Mus musculus, UniProt P35582, residues 1-468, full length assumed)
Method: EMSA with sequencing
Molecule type: double-stranded DNA, one strand shown
Sample: in vitro
Concentration: 10 and 20 nM
Notes: whole designed probe, mean of two concentrations, ends assumed
Reference: negative control set to 0
Direction: higher = stronger binding
Target sequence (chain): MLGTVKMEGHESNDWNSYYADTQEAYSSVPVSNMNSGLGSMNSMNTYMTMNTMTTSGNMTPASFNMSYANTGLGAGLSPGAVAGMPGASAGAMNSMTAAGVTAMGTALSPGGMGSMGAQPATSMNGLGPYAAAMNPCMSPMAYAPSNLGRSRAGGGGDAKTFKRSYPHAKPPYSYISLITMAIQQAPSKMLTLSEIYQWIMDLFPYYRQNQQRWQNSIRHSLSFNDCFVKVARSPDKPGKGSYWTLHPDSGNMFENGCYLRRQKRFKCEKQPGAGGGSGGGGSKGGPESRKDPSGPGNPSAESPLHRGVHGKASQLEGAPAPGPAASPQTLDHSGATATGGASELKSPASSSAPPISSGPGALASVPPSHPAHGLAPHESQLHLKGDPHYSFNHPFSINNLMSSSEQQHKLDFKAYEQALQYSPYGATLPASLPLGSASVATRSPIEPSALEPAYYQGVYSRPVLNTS
`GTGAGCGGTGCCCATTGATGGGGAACAATAGCGCTCTGGAGAGAAGGTCCGTTCCATGCCCAGGTAGGGAGGAGGGGGAAAAATGATACTGGCGGGCAGGGAGAGGGGAAGGCAAGAAAGCAAACAGGCGTGGAAGAGCTGAGTCGACTAATCTGACTTCTTTTGTCTGTAGACGGGGGAATCCAGGGTGACTGGGTATAATCTGTATTATCTAGGTCCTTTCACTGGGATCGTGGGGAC`: “normalised bound fraction” 0.0563 ratio.
`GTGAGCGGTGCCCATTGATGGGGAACATCCACGAACCTGGCCCTGTCTGGTAACCACAGTGAACCATCGCAAGATACAGCACTATGTGCCCAGTTGGGCTGGAATAATGACTCACATGTGTCAACACTGGCACATCCTCAGGGACACGGAAGTGTACTTGTTTTTGGAGAGGGACTAGACCTTCATCCTTGAGGTGAAGAAGATTTTCTCTCCAGGGTGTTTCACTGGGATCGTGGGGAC`: “normalised bound fraction” 0.108 ratio.
For `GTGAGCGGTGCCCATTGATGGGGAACTAGTAGACAATAACCATGAAGTCTAACTTCCCTATAGCCAAGTGATCTCAGATAATTCCCTTCATGCAGTGACCACAACCCACAGAAAACGCATGTTTATATTATGACTCAGTGCATACATTCAGGCACACATTCACACTATGTGATAGACTCTATTTGTTAAAATGGTGTAATCTATTTTTTTTATTCTATTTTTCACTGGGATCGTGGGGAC`, “normalised bound fraction” read 0.205 ratio.
`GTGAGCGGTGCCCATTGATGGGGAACTGAGAATTGAACAGGGTGTAAAGAACCTGGAAAGCACCTGGAACAGTGCCAGCCCATAGTAAGTACGCAGCGAGAATGAGCTATTTGTATTGTGTAATCTTGGTGGACAGTGTCTGTTATGTATCCAAAATGATTGTTGTTGGAGACTAAGAGAAAATGGATGCAGCTACAGTACTGAGGAGGCTGCAGTGTCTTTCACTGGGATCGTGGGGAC`: “normalised bound fraction” 0.121 ratio.
`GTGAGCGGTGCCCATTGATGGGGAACTTTTTGTTTTCACAATCCCAGTTGTTCTGCTACTAACCCAATACATCTATTTACAAAAGAAGTTACATGAGTCTCTTTTTTCTCCATTTTTTTGTTTACATAGGCAAATTTCCTTACAATGTAAACTGTAATAATAGTTGAAACATGTGGTTTTATCAATTCTGTTTTACAGCAGCCTGAGAAGAGTGAAGAATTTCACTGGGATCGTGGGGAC` — result for “normalised bound fraction”: 0.534 ratio.
`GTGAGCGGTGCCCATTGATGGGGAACATCTTCCCCCTCTTCCTTGCCCCACCAGCTCACCTACGGGGGTTATTTGCAGATAGGAAAATAAATAAAGCCGGCATTCGTTAACCCTCTTCTGGCGCAAACTGCTGTTTGCTCTGGATCTAACATGGTCCTTTGGCGAGGCGTGGCTCCGGGAGAGCAAAGCACCGTGTCAGGGCCATGATCCGGGGTGGCCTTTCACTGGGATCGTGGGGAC`: “normalised bound fraction” 0.347 ratio.

Block 2
Target: Histone acetyltransferase KAT6A, both winged helices, GST fusion (KAT6A, Homo sapiens, UniProt Q92794, residues 1-181)
Method: protein binding microarray
Molecule type: double-stranded DNA, one strand shown
Sample: in vitro
Concentration: not given
Notes: 8-mer, flanks averaged, mean of 2 arrays, mostly near background
Reference: not given
Direction: higher = stronger binding
Target sequence (chain): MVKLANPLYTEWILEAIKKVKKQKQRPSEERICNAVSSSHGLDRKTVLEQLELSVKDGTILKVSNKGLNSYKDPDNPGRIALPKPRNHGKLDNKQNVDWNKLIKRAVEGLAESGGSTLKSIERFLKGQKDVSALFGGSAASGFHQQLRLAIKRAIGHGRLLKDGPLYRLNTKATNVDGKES
With `CTACGCTA` the E-score was 0.124.
`GTACCCGA` has an E-score of 0.0631.
`AATATCAT` gave an E-score of 0.0687.
For `GGCCGTTA`, the E-score was 0.212.
For `TCCGGAAA`, the E-score was 0.189.
`ACGACTGC` has an E-score of -0.0438.
With `ACGCTTTC` the E-score was 0.135.
For `CCGCGGGA`, the E-score was 0.341.
With `AGCACCAT` the E-score was -0.156.
`AGGATGAG` gave an E-score of 0.0306.
The E-score of `CCATTATA` is reported as -0.0566.
With `ACGCCTAC` the E-score was 0.0415.
With `CCGACAAC` the E-score was 0.136.

Block 3
Target: RNA binding protein fox-1 homolog 2, RRM domain, GST-SBP tag (RBFOX2, Homo sapiens, UniProt O43251-10, residues 100-194)
Method: RNA Bind-n-Seq
Molecule type: RNA
Sample: in vitro
Concentration: 365 nM
Notes: natural RNA segment, single round, ends assumed
Reference: no-protein control
Direction: higher = stronger binding
Residues (chain): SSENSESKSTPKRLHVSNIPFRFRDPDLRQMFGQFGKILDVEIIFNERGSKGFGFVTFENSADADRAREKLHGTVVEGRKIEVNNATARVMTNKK
`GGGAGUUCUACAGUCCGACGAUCAGAACUUAUUUGAGAAGGAAGCUCUCGUUCCACAUUCCUAGCAACUAUAUUCUCAGGCACACAUAGGCGCACAGAGACAGCUUCCUAGUAACUCACAUCAAUUUCGUUUAUGGAAUUCUCGGGUGCCAA`: “RBNS enrichment (R)” 0.584.
`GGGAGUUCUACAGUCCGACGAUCGCACUUCUGAAAUUCCAUAUUUUGUUUGCUGGGGCCUGAGUUUGCUGGCUUUUAAAAUAUAGAUCAGAUCAAUUUACCCGACUUCAUGAAUAAUCCUAAAUUCUCUGGAAUGGAAUUCUCGGGUGCCAA` — result for “RBNS enrichment (R)”: 1.08.
`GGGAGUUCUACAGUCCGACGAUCGUUUUUGUUGUUUGUUUUGUUAUUUUUUAACUAAUAAGUUGGUUAUCAGUGGUGGGUUUUCAAAAUGUACUUGUUCUAAUAAGUUGUACAAUGAACUAAAUCAGUGGCAUUGGAAUUCUCGGGUGCCAA`: “RBNS enrichment (R)” 0.546.
For `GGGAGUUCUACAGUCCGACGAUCGCGGAAUUUGGUACUCAUUACCGUAUUCGCCGUACUAAGUUGGUUUCUGUUAGUCUUAACAGUCUGUUUUCUUUUAAAAGCAUGUAGGGCUUCAUUGCCAUGUUCUGUGGUGGAAUUCUCGGGUGCCAA`, “RBNS enrichment (R)” read 0.41.
`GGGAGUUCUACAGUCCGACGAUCCUUGGGCUACUGUAGAUUUGUAUCCUUGGUGAAUUUGGGGUUCCCAUCGGAUUGAACAUACACUGUAUAUUUUGCAAUAGUUACCUCAAGGCCUACUGACCAAAUUGUUGUGGAAUUCUCGGGUGCCAA`: “RBNS enrichment (R)” 0.549.
`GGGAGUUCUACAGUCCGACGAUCGAGCCUUAGGAUGCAGCAUGCCUUCAGGAGACACUGCUGGACCUCAGCAUUCCCUUGAUAUCAGUCCCCUUCACUGCAGAGCCUUGCCUUUCCCCUCUGCCUGUUUCCUUUGGAAUUCUCGGGUGCCAA` — result for “RBNS enrichment (R)”: 8.6.
`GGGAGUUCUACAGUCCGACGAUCUUUUGUAAUCAUUCUCUAAUCCCACUCUGAGUGUCCCGUGACCCUGCAUAAUAAAGCAAUCACUUUCGUUUGCUGGUGCUUAUUCUGAAUAAAAGUCUUGAUUGCAUGAGUGGAAUUCUCGGGUGCCAA` — result for “RBNS enrichment (R)”: 2.92.
Under “RBNS enrichment (R)”, `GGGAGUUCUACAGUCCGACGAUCUAGGGUUUCGAUGUGCUAUGUUCUCAUCCUACAGUUGGUUUGGUAAUGAUCUGCAAGUCCCGGAGAGCAACAGCACAGCUCUGCCUGACGCUCUCAUUAAAAUCUAUGCAUGGAAUUCUCGGGUGCCAA` is recorded as 9.99.
Under “RBNS enrichment (R)”, `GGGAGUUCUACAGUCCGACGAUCAUACAUAUAUACAUUCAUAUACGACAAAGUAGGAGCUGUCCCCUUAGGAUGCAUAGCUGCCCCUAGGGUACGUAGCUGAACACUGACAAUGGCGUUCUUCUGAAAGAGCCUGGAAUUCUCGGGUGCCAA` is recorded as 0.212.
`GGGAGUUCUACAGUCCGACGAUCACCAAAUGUGCAUUGAAUACUCUGAAACCGAAGGGACUGGAUCUGCAGGUGGGAUGAGGGAGACAGACCACUUUUCUAUAUUGCAGUGUGAAUGCUGGGCCCCUGCUCAAUGGAAUUCUCGGGUGCCAA`: “RBNS enrichment (R)” 2.09.
`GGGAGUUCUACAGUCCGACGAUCUAAGUGUUUAUCAUAUAUAUGGGUACUUUGUAAUAUCUAAAAACUUAGAAACGGAAAUGGAAUCCUGCUCACAAAAUCACUUUAAGAUCUUUUCGAAGCUGUUAAUUUUUUGGAAUUCUCGGGUGCCAA` — result for “RBNS enrichment (R)”: 0.842.
Under “RBNS enrichment (R)”, `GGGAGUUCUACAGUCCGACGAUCUCAGUUUAGAUCUCAAAUAUAGGCUGAAAUCUCUUACCAAAGUGCGUUCCAGAUAAAAAUGAGACUUAGAAGACAGACUGGUCUAAUAUGCUCACUGGUCAUCACAUUCAUGGAAUUCUCGGGUGCCAA` is recorded as 0.262.

Single results of other studies
`PhoQ, residues 284 288 289 292 302 303 ASASEQ` has a fold induction of 2.89 (PhoP, residues 12 14 15 18 19 VGHWL (Escherichia coli, UniProt P23836); Sort-seq, measured: YFP reporter; E. coli; PhoQ-PhoP variant library, together with: 10 µM Mg2+; reference: high Mg2+ state, higher = stronger signaling).

Excerpt of the above (block 1):
`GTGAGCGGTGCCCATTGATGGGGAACTGAGAATTGAACAGGGTGTAAAGAACCTGGAAAGCACCTGGAACAGTGCCAGCCCATAGTAAGTACGCAGCGAGAATGAGCTATTTGTATTGTGTAATCTTGGTGGACAGTGTCTGTTATGTATCCAAAATGATTGTTGTTGGAGACTAAGAGAAAATGGATGCAGCTACAGTACTGAGGAGGCTGCAGTGTCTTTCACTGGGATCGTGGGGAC`: “normalised bound fraction” 0.121 ratio.
`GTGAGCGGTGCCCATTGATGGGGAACTTTTTGTTTTCACAATCCCAGTTGTTCTGCTACTAACCCAATACATCTATTTACAAAAGAAGTTACATGAGTCTCTTTTTTCTCCATTTTTTTGTTTACATAGGCAAATTTCCTTACAATGTAAACTGTAATAATAGTTGAAACATGTGGTTTTATCAATTCTGTTTTACAGCAGCCTGAGAAGAGTGAAGAATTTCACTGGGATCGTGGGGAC` — result for “normalised bound fraction”: 0.534 ratio.
For `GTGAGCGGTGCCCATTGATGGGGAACTAGTAGACAATAACCATGAAGTCTAACTTCCCTATAGCCAAGTGATCTCAGATAATTCCCTTCATGCAGTGACCACAACCCACAGAAAACGCATGTTTATATTATGACTCAGTGCATACATTCAGGCACACATTCACACTATGTGATAGACTCTATTTGTTAAAATGGTGTAATCTATTTTTTTTATTCTATTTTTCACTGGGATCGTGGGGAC`, “normalised bound fraction” read 0.205 ratio.
`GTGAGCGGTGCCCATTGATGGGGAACATCCACGAACCTGGCCCTGTCTGGTAACCACAGTGAACCATCGCAAGATACAGCACTATGTGCCCAGTTGGGCTGGAATAATGACTCACATGTGTCAACACTGGCACATCCTCAGGGACACGGAAGTGTACTTGTTTTTGGAGAGGGACTAGACCTTCATCCTTGAGGTGAAGAAGATTTTCTCTCCAGGGTGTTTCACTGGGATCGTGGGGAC`: “normalised bound fraction” 0.108 ratio.
